Published values pooled from the literature.
Protocols differ between the studies behind these lines. “And” joins repeats or separate records; there may be more than shown. ± gives the spread as reported.
UCHL1: Ubiquitin carboxyl-terminal hydrolase isozyme L1 (UCHL1, Homo sapiens, UniProt P09936)
Sequence of UniProt P09936 (whole entry, looked up): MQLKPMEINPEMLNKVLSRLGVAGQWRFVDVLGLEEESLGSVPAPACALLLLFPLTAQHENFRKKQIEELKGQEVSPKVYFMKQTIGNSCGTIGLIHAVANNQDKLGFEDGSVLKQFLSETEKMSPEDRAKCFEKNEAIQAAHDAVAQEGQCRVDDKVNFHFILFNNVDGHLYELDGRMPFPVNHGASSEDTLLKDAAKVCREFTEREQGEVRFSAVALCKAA

CC(C)(C)c1ccc(S(=O)(=O)/C=C/C#N)cc1  EC50 (Toxoplasma gondii; parasite growth, luciferase reporter; HFF, tachyzoite; 72 h): 15000 nM
CCCCCCCCCCCCCC[N+](C)(C)C  Kd (GH3; Na+ channel; internal application, upper limit): 480 nM
CCn1cc(-c2cc(Cn3ccnc3)cc3c2CCN([C@H](c2cc(OC)ccn2)C2CC2)C3=O)c(C(F)(F)F)n1  EC50 (SNU1066; cell growth; 120 h): > 30000 nM
Cc1cc(NC(=O)c2cccc(NC(=O)/C=C/CN(C)C)c2)ccc1Nc1nccc(-c2cccnc2)n1  reporter activity (HEK293 AP1 reporter cells; AP-1 reporter gene, inhibitor; 1 µM, 6 h, unit not given, added: PMA; baseline: PMA alone): 0.951
Cc1cc(Nc2ncc(Cl)c(Nc3ccccc3S(=O)(=O)C(C)C)n2)c(OC(C)C)cc1C1CCNCC1  log2 fold change (CLB-BAR; phosphoproteomics LC-MS/MS, measured: SHC2 phosphorylation; 200 nM, 60 min; baseline: untreated): -1.83
NC1(c2ccc(-c3nc4ccn5c(=O)[nH]nc5c4cc3-c3ccccc3)cc2)CCC1  G2/M phase cells (MDA-MB-468; flow cytometry PI; EC60, 72 h): 27.7%
c1ccc2[nH]ccc2c1  mRNA level, LS mean (HCT-8; RNA-seq, measured: CHAC1; concentration not given): 100 counts per million
Nc1ncnc2c1ncn2[C@@H]1O[C@H](CO)[C@@H](O)[C@H]1O  log2 fold change (activated human T cells; measured: dihydroorotate; 30 µM; baseline: DMSO): 6.1 and 6.4 and 6.5
C=CCn1c(=O)c2cnc(Nc3ccc(N4CCN(C)CC4)cc3)nc2n1-c1ccc2c(n1)[C@@](O)(CC)CC2  cells in G1 phase among γH2AX-positive cells (NCI-H1048; flow cytometry; concentration not given): 4.2%
C#C[C@@]1(O)[C@@H](CO)O[C@@H](n2cc(F)c3c(N)ncnc32)[C@@H]1O  LC50 (NCI60 panel; cell viability; mean over panel): -4.2 log M
O=C(C[C@@H](C(F)F)n1ccc(F)n1)N1CCC(O)(Cn2cnc3c(cnn3-c3ccc(F)cc3)c2=O)CC1  apoptotic cells (CHP-212 parental; annexin V/PI flow cytometry; 0.1 µM, 48 h): 24.3%
CC(=O)[C@]1(O)Cc2c(O)c3c(c(O)c2[C@@H](O[C@H]2C[C@H](N)[C@H](O)[C@H](C)O2)C1)C(=O)c1ccccc1C3=O  EC50 (Toxoplasma gondii; tachyzoite growth, luciferase; ME49-Fluc, type II): 670 nM
Cn1cc(Nc2nccc(-c3ccc4c(c3)CN(C3COC3)CC[C@H]4NC(=O)c3cn(C(C)(C)C)nn3)n2)cn1  pathway activation z-score (mouse splenic B cells; measured: Interferon signalling; 30 mg/kg, IgD-activated in vivo; baseline: vehicle, direction not given): 2.24
COc1ccc(-n2nc(C(C)=O)s/c2=N\N=C(/C)c2ccc(NC(=O)c3ccccc3)cc2)cc1  toxicity (HepG2; 0.312 µM): 10.6%
COc1c(C)c(OC(=O)c2ccc(C)cc2)c(C)c(O)c1C(=O)/C=C/c1ccccc1  selectivity index (FaDu; SRB; baseline: normal over FaDu IC50): 1.15
Cc1c(C(=O)O)ccc2c3n(nc12)[C@@H]1[C@H](C3)N(CC2CC2)[C@@]2(C(=O)Nc3cc(Cl)ccc32)[C@H]1c1cccc(Cl)c1F  IC50 (highly sensitive cancer cell lines; cell viability, PRISM pooled screen; median, sensitivity above 0.5): 107 nM
CC/C(=N\NC(=O)C(C)Nc1ccccc1)c1ccc(O)c(C)c1O (stereo not shown)  protein level (SK-OV-3; Western blot, measured: phospho-YAP; 10 µM, 6 h, 2D culture, unit not given; baseline: total YAP): 0.39 ± 0.14
Cc1cc(Nc2ncc(Cl)c(Nc3ccccc3S(=O)(=O)C(C)C)n2)c(OC(C)C)cc1C1CCNCC1  Emax (NCI-H2228 (EML4-ALK variant 3); cell viability): 30.3%
Cn1cc(-c2ccc(-c3cncc(Cl)c3N3CCC4(CCNC4=O)CC3)cc2)cn1  log2 fold change (COLO 205; gene expression, microarray, measured: ELF3 mRNA; concentration not given, 6 h; baseline: untreated cells): 1.93
COc1cc(C[C@H]2COC(=O)[C@@H]2Cc2ccc(O)c(OC)c2)ccc1O  calcium signalling (neuroblastoma cells; Fura-2 ratiometric; concentration not given): no effect
C=CC(=O)c1cccnc1Nc1cc(C(F)(F)F)ccc1OC  TEAD reporter activity (MCF7; firefly luciferase reporter; 100 µM, 6 h; baseline: vehicle): 1.6 ± 0.1%
COc1ccc(-c2c(C=O)c3cc(C#N)c(C#N)cc3n2OC)cc1  labelling (UCHL1; covalent, intact protein LC-MS; 12.5 µM): 17.2%
O=C(Nc1nnc2n3c(Cc4ccccc4)n[nH]c3nc(-c3ccc(Cl)cc3)c1-2)c1ccccc1  growth percent (MDA-MB-231/ATCC; NCI60 SRB; 10 µM): 96.3%
CCn1cc(-c2cc(Cn3ccoc3=N)cc3c2CCN([C@@H](C)c2cc(OC)ccn2)C3=O)c(C(F)(F)F)n1  EC50 (FaDu; cell growth, inhibitor; 120 h): 955 nM
C[n+]1cccc(C=NNc2nc(Cl)c(C#N)c(Cl)c2Cl)c1  labelling (UCHL1; covalent, intact protein LC-MS; 12.5 µM): 3.2%

Some of these lines once more:
COc1c(C)c(OC(=O)c2ccc(C)cc2)c(C)c(O)c1C(=O)/C=C/c1ccccc1  selectivity index (FaDu; SRB; baseline: normal over FaDu IC50): 1.15
CCCCCCCCCCCCCC[N+](C)(C)C  Kd (GH3; Na+ channel; internal application, upper limit): 480 nM
